# Experimental data from different studies.
# Compare with care: the assays were run in different laboratories. Several values in a cell are separate wells, animals, samples, runs or records. Numbers after ± are the reported error.
Structure (SMILES),cell line,assay,conditions,how to read,endpoint,result
CCOc1cncc(-c2ccc(NC(=O)C3(c4ccnc(NS(=O)(=O)C5CC5)n4)CCOCC3)nc2)n1,NCI-H727,"cell growth or viability, ATP luminescence",72 h,,IC50,10000 nM
COC(=O)c1cc(NC2=NC(=O)C(=Cc3ccc(N(C)C)cc3)S2)ccc1OC(C)=O,MCF7,"GC-MS, item: Decanoic acid",1 µM,reference: DMSO,metabolite level,-1.07 fold change
Cn1ncc2cc(-c3cncc(Cl)c3N3CCC4(CCNC4=O)CC3)ccc21,LS174T,"gene expression, microarray, item: EDN2 mRNA","concentration not given, 24 h",reference: untreated cells,log2 fold change,-3.37
CNS(=O)(=O)Nc1nccc(Cc2c(C)c3ccc(Oc4ncccc4F)cc3oc2=O)c1F,MDA-MB-436,cell viability,7 days,,IC50,> 1000 nM
COc1ccccc1-c1ccncc1C(=O)Nc1nnc(OCc2ccc(Cl)cc2)s1,PEO1 BRCA2-mutant ovarian cancer,,"0.5 µM, together with: olaparib 1 µM",,colony survival,0%
Cc1ncsc1-c1ccc(C(C)NC(=O)C2CC(O)CN2C(=O)C(NC(=O)CCCCCCCCCCN2CCCC(Nc3ncc(Cl)c(Nc4ccccc4S(=O)(=O)C(C)C)n3)C2)C(C)(C)C)cc1 (stereo not drawn),22Rv1,"RNA-seq, item: NSRP1 mRNA",concentration not given,reference: DMSO,log2 fold change,-1.06
CCn1nc(Cl)c2c1-c1cnc(N)c(c1)O[C@H](C)c1cc(F)ccc1-c1nn(C)cc1C2,Aska-SS (ALK exon 2-17 deletion),cell viability,,,Emax,78.7%
CCC(=CCc1c(O)cc2c(c1O)C(=O)CC(c1ccc(O)cc1)O2)CC (stereo not drawn),HeLa,flow cytometry,"48 µM, 48 h",,active caspase-3 cells,3.42%
NCC(=O)Nc1ccc(Sc2ccc3c(/C=C/c4ccccn4)n[nH]c3c2)cc1,Ba/F3 TEL-VEGFR2,"cell growth, CCK-8",,,GI50,190 nM
CCCCCCc1cccc([C@H](O)C[C@H](CO)NC(=O)CCCCCCCCCCBr)c1,HeLa,"CERT activity, HPLC-MS/MS lipidomics, item: hexosylceramide 24:1","1 µM, 24 h, not cell-number normalised",,hexosylceramide level,14700 pmol/sample and 23500 pmol/sample and 21700 pmol/sample
COc1cc(C(=O)N2CC[C@@H](O)[C@@H](N)C2)cc2nc(-c3cc4cccnc4n3CC3CC3)n(C)c12,human neutrophils,"protein citrullination, inhibitor, flow cytometry, item: citrullinated histone H3","316 nM, together with: ionomycin",,inhibition,17.1% and 20.9% and 41.6% and 26.6%
COC(=O)[C@@]1(C(C)C)C=C(C(=O)Nc2cccc(C(=O)Nc3ccc(Nc4nccc(-c5cccnc5)n4)c(C)c3)c2)C(=O)CC1,HEK293 AP1 reporter,"AP1 reporter gene, inhibitor","3 µM, 6 h, unit not given, together with: PMA",reference: PMA alone,reporter activity,0.346
COCCCCCNc1nc(NCCCCCCN(C)C)c2cc(NC(=O)/C=C/CN(C)C)ccc2n1,MCF7,CellTiter-Glo,"3.125 µM, 72 h, unit not given",reference: DMSO-treated cells,viability,0.868 and 1.01 and 1.03
CN1CC[C@@H](COc2cnc(C#N)cc2-c2ccn3nc(NC(=O)C4CC4)cc3c2)C1,"human PBMC, CD4 memory T cells",single-cell RNA-seq,"1 µM, together with: LPS",reference: LPS alone,number of downregulated genes,5 genes
CO[C@@H]1[C@@H](OC(N)=O)[C@@H](O)[C@H](Oc2ccc3c(O)c(NC(=O)c4ccc(O)c(CC=C(C)C)c4)c(=O)oc3c2C)OC1(C)C,HCT-116 BRCA2-/-,,"200 µM, replicate 2",,colony count,1.55
O=C(Nc1nncs1)c1cccc([C@@H]2C[C@H]2NC2CCC2)c1,SET-2,"cell growth, CellTiter-Glo","1 µM, 7 d",reference: vehicle,relative growth,97.3% and 77.6% and 83.7%
O=C(CNC(=O)c1ccc(Cl)c(C(F)(F)F)c1)Nc1ccc2[nH]nc(/C=C/c3ccccn3)c2c1,Ba/F3 TEL-VEGFR3,"cell growth, CCK-8",,,GI50,2900 nM
O=C(Nc1nnc2c1c(-c1ccc(Cl)cc1)nc1sc(=Cc3ccco3)c(=O)n12)c1ccccc1 (mixture of isomers),TK-10,SRB,"10 µM, NCI60 single-dose screen",reference: untreated,cell growth,51.7%
COc1ccc(O)cc1-c1c[nH]c2ncc(-c3cncc(C(=O)N(C)C)c3)cc12,non-BCR-ABL leukaemia cells,,concentration not given,,cytotoxicity,not toxic
CC(C)C[C@H](NC(=O)[C@@H]1CCCN1C(=O)[C@H](CCCCN)NC(=O)[C@@H](N)CO)C(=O)N1CCC[C@H]1C(=O)N[C@@H](CCC(=O)O)C(=O)N[C@H](C(=O)N[C@H](C(=O)N[C@@H](CC(=O)O)C(=O)N[C@@H](CCC(=O)O)C(=O)N[C@@H](Cc1ccc(O)cc1)C(=O)NCC(=O)NCCOCCOCCOCCOCCOCCOCCOCCOCCOCCOCCOCCOCCC(=O)N[C@@H](CCCCNC(=O)CC[C@H](C(=O)O)N1CCN(CC(=O)O)CCN(CC(=O)O)CC1)C(=O)N1CCN(CCCN(C)c2ccc3nccc(C(=O)NCC(=O)N4CC(F)(F)C[C@H]4C#N)c3c2)CC1)[C@@H](C)O)C(C)C,HT-1080 expressing hFAP,"binding, flow cytometry","4 °C, apparent",,Kd,18.8 nM
C=CC(=O)N1[C@H](c2ccc3c(c2)OCO3)c2[nH]c3ccccc3c2C[C@@H]1C(=O)NC,rat DRG neurons,,"1.111 µM, 48 h, together with: vincristine 40 nM",,neuron degeneration,24.8% and 26.1%
COc1cccc(OC)c1-c1cc(C(=O)NC2(C(=O)O)C3CC4CC(C3)CC2C4)nn1-c1ccc(C(=O)NCCNC(=O)[C@H](CCCCNC(=O)[C@H](CC(C)C)NC(=O)C2OC2C(=O)O)NC(=O)CN2CCN(CC(=O)[O-])CCN(CC(=O)[O-])CCN(CC(=O)[O-])CC2)cc1C(C)C.[177Lu+3] (mixture of isomers),HT-29,,"concentration not given, 30 min",reference: added activity,surface-bound fraction,1.32 ± 0.04%
O=C(Nc1ccc(Cl)c(C(F)(F)F)c1)C1(C(=O)Nc2ccc3c(/C=C/c4ccccn4)n[nH]c3c2)CC1,Ba/F3 TEL-VEGFR3,"cell growth, CCK-8",,,GI50,> 10000 nM
CNC(NN=Cc1ccc([N+](=O)[O-])o1)=[S+][Au-][Cl],CAKI-1,annexin V/PI flow cytometry,"15 µM, 72 h",,cell fraction ANV+/PI−,30.4 ± 0.5%
COc1cc(N2CCN(C(=O)CCOCCNC(=O)[C@@H]3CCCN3)CC2)ccc1Nc1ncc(Cl)c(Nc2ccccc2P(C)(C)=O)n1,H3122,annexin V-FITC/PI flow cytometry,"500 nM, 24 h",,late apoptotic cells,2.68% and 2.19% and 2.22%
CC(C)c1ccc(N(C)c2ccc3c(c2)OCC[C@H]3CNc2cnccc2C(=O)O)cc1,LUDLU-1,"cell viability, CellTiter-Glo",7 days,,IC50,25.8 nM
COc1ccc(NC(=O)c2ccc3[nH]c(-c4ccc(N(C)C)cc4)nc3c2)cn1,Y79,"cell growth, CellTiter-Glo",,,EC50,9240 nM
CCN(CC)CC(=O)Nc1cccc(-n2cc(-c3ccc4ccc(-c5cn(-c6cccc(NC(=O)CN(CC)CC)c6)nn5)cc4c3)nn2)c1,RCC4,"PCR angiogenesis array, item: CCL2","5 x IC50, 6 h, normoxia",reference: untreated,fold regulation,1.24
CN1CCCNC(=O)c2cccc(c2)C(=O)NCCCN(C)CCCNc2cccc3c2C(=O)c2cccc(c2C3=O)NCCC1,SAS,"RNA-Seq, item: CCNB1IP1 mRNA","1 µM, 6 h",reference: untreated cells,log2 fold change,-0.73
CCN(C(=O)c1cc(F)ccc1Oc1nncnc1N1CCC2(C1)CN([C@H](CCCN(C)CCOC)C(C)C)C2)C(C)C,CAKI-1,cell growth or viability,7 days,,GI50,> 10000 nM
O=CCNCCOn1c(=O)n(OCCNCCO)c(=O)n(OCCNCCOn2c(=O)n(OCCNCCO)c(=O)n(OCCNCCO)c2=O)c1=O,A549,"cell growth or viability, MTT","25 µg/mL, 48 h",,viability,43.7%
CN(C)CCN1CCN(c2ccc3nc(-c4ccc5nc(-c6ccc(C(F)(F)F)cc6)[nH]c5c4)[nH]c3c2)CC1,M14,SRB,"10 µM, 48 h",,growth percent,32.2%
Fc1ccc(Nc2nc(NC3CCCCC3)c3ccccc3n2)cc1F,transfected HEK293 cells,"β-arrestin2 recruitment, negative allosteric modulator, BRET","30 min pre-incubation, β1AR ECL1/2 chimera, together with: isoproterenol 1 µM",reference: isoproterenol alone,Imax,-13%
